# Published values collected from several papers.
# Compare with care: the assays were run in different laboratories. Numbers after ± are the reported error.
# Method: steady-state kinetics
# B1: Tcur_2987 W263F/W376F (Thermomonospora curvata, UniProt D1A807); chain ACSEERAAGARPSATQTTGTATEPFHGPHQAGIATPPQAHAVFLGLDLRKGTGRKELGRLMRLLTDDARRLTQGRPALADPEPDLAPLPSRLTFTFGFGPGLFKAAGLEKQRPEGLRPLPPFKVDRLEDRWSGGDLLVQICCDDPITLAHALRMTVKDARAFTRVRWVQRGFRRSPGVQSSGATQRNLMGQLDGTVNPVPGTADFDQAVWVQDGPEWLRGGTTLVLRRIRMELEKFDEADPAGKEFAVGRRLTSGAPLTGRHEHDEPDFDAVDSAGFPVIAENAHIRLAHVDSPRLRMLRRPYNYDEGLTADGRSDAGLLFAAYQADIDRQFIPVQRRLDEGGDLLNLFTTPIGSAVFAIPPGCDENGWIGQGLLG
# B2: trypsin (Saccharopolyspora erythraea, UniProt Q54137); chain IVGGEDANVQDHPFTVALVTPDGQQFCGGTLAAPNKVVTAAHCTVGSQPADINVVSGRTVMSSNEGTVSKVTNVWVHPEYQDAAKGFDVSVLTLEAPVKEAPIELAKADDAGYAPDTAATILGWGNTSEGGQQADHLQKATVPVNSDDTCKQAYGEYTPDAMVCAGVPEGGVDTCQGDSGGPMVVNNKLIGVTSWGEGCARPGKPGVYARVGAYYDVLMEQINAGAVSAR
# B3: enzyme (Acinetobacter baumannii, UniProt D0CBC8); chain MALVLDGRALAKQIEENLLVRVEALKAKTGRTPILATILVGDDGASATYVRMKGNACRRVGMDSLKIELPQETTTEQLLAEIEKLNANPDVHGILLQHPVPAQIDERACFDAISLAKDVDGVTCLGFGRMAMGEAAYGSATPAGIMTILKENNIEIAGKHAVVVGRSAILGKPMAMMLLQANATVTICHSRTQNLPELVKQADIIVGAVGKAELIQKDWIKQGAVVVDAGFHPRDGGGVGDIQLQGIEEIASAYTPVPGGVGPMTITTLIRQTVEAAEKALG
# B4: protein (Shewanella denitrificans, UniProt Q12KT8); chain MIHKLADVQSQNIGDNTKVWQFCVILAGAVIGRNCNICANSLIENDVVIGDNVTIKSGVQIWDGIHIQDDVFIGPNVTFTNDKQPRSKIYPDEYLKTIVKKGASIGANSTILPGILIGENAMVGAGAVITKNVPDNAIVIGNPGRITGYVEANTGVIMPSNNFELKLQMSKVKGVSLHKFHLVNDLRGNLSVGEFEKDIPFTPKRYFTVFGVPNKEVRGEHAHKECKQFLICVSGNCSVLVDDGENREEYVLDSIDKGIYLPPMTWGVQYKYSKDAVLLVFASHYYDSDDYIRDYSTFKQMRQN
# B5: enzyme A178R/D177A/M179H/P184R (Levilactobacillus brevis, UniProt Q03Q85); chain MKVTVVGCTHAGTFAIKQILAEHPDAEVTVYERNDVISFLSCGIALYLGGKVADPQGLFYSSPEELQKLGANVQMNHNVLAIDPDQKTVTVEDLTNHAQTTESYDKLVMTSGSWPIVPKIPGIDSDRVKLCKNWAHAQALIEDAKEAKRITVIGAGYIGAELAEAYSTTGHDVTLIARHARVMRKYFDADFTDVIEQDYRDHGVQLALGETVESFTDSATGLTIKTDKNSYETDLAILCIGFRPNTDLLKGKVDMAPNGAIITDDYMRSSNPDIFAAGDSAAVHYNPTHQNAYIPLATNAVRQGILVGKNLVKPTVKYMGTQSSSGLALYDRTIVSTGLTLAAAKQQGLNAEQVIVEDNYRPEFMPSTEPVLMSLVFDPDTHRILGGALMSKYDVSQSANTLSVCIQNENTIDDLAMVDMLFQPNFDRPFNYLNILAQAAQAKVAQSVNA
# B6: BaiA2 (Clostridium scindens, UniProt P19337); chain MNLVQDKVTIITGGTRGIGFAAAKIFIDNGAKVSIFGETQEEVDTALAQLKELYPEEEVLGFAPDLTSRDAVMAAVGQVAQKYGRLDVMINNAGITSNNVFSRVSEEEFKHIMDINVTGVFNGAWCAYQCMKDAKKGVIINTASVTGIFGSLSGVGYPASKASVIGLTHGLGREIIRKNIRVVGVAPGVVNTDMTNGNPPEIMEGYLKALPMKRMLEPEEIANVYLFLASDLASGITATTVSVDGAYRP
# B7: Tat (Mus musculus, UniProt Q8QZR1); chain WNVRPSDMSNKTFNPIRAIVDNMKVKPNPNKTVISLSIGDPTVFGNLPTDPEVTQAMKDALDSGKYNGYAPSIGYLSSREEVASYYHCPEAPLEAKDVILTSGCSQAIELCLAVLANPGQNILIPRPGFSLYRTLAESMGIEVKLYNLLPEKSWEIDLKQLESLIDEKTACLVVNNPSNPCGSVFSKRHLQKILAVAERQCVPILADEIYGDMVFSDCKYEPMATLSTNVPILSCGGLAKRWLVPGWRLGWILIHDRRDIFGNEIRDGLVKLSQRILGPCTIVQGALKSILQRTPQEFYQDTLSFLKSNADLCYGALSAIPGLQPVRPSGAMYLMVGIEMEHFPEFENDVEFTERLIAEQSVHCLPATCFEYPNFFRVVITVPEVMMLEACSRIQEFCEQHY
# B8: SUOX R529M/Y400N (Homo sapiens, UniProt P51687); chain ESTHIYTKEEVSSHTSPETGIWVTLGSEVFDVTEFVDLHPGGPSKLMLAAGGPLEPFWALYAVHNQSHVRELLAQYKIGELNPEDKVAPTVETSDPYADDPVRHPALKVNSQRPFNAEPPPELLTENYITPNPIFFTRNHLPVPNLDPDTYRLHVVGAPGGQSLSLSLDDLHNFPRYEITVTLQCAGNRRSEMTQVKEVKGLEWRTGAISTARWAGARLCDVLAQAGHQLCETEAHVCFEGLDSDPTGTAYGASIPLARAMDPEAEVLLAYEMNGQPLPRDHGFPVRVVVPGVVGARHVKWLGRVSVQPEESYSHWQRRDNKGFSPSVDWETVDFDSAPSIQELPVQSAITEPRDGETVESGEVTIKGYAWSGGGRAVIRVDVSLDGGLTWQVAKLDGEEQRPRKAWAWRLWQLKAPVPAGQKELNIVCKAVDDGYNVQPDTVAPIWNLMGVLSNAWHRVHVYVSP
# B9: Mgst1 unactivated (Rattus norvegicus, UniProt P08011); chain ADLKQLMDNEVLMAFTSYATIILAKMMFLSSATAFQRLTNKVFANPEDCAGFGKGENAKKFLRTDEKVERVRRAHLNDLENIVPFLGIGLLYSLSGPDLSTALIHFRIFVGARIYHTIAYLTPLPQPNRGLAFFVGYGVTLSMAYRLLRSRLYL
# B10: PPIP5K2 (Homo sapiens, UniProt O43314); chain MSEAPRFFVGPEDTEINPGNYRHFFHHADEDDEEEDDSPPERQIVVGICSMAKKSKSKPMKEILERISLFKYITVVVFEEEVILNEPVENWPLCDCLISFHSKGFPLDKAVAYAKLRNPFVINDLNMQYLIQDRREVYSILQAEGILLPRYAILNRDPNNPKECNLIEGEDHVEVNGEVFQKPFVEKPVSAEDHNVYIYYPTSAGGGSQRLFRKIGSRSSVYSPESNVRKTGSYIYEEFMPTDGTDVKVYTVGPDYAHAEARKSPALDGKVERDSEGKEVRYPVILNAREKLIAWKVCLAFKQTVCGFDLLRANGQSYVCDVNGFSFVKNSMKYYDDCAKILGNIVMRELAPQFHIPWSIPLEAED
# B11: Pck1 (Rattus norvegicus, UniProt P07379); chain MPPQLHNGLDFSAKVIQGSLDSLPQEVRKFVEGNAQLCQPEYIHICDGSEEEYGRLLAHMQEEGVIRKLKKYDNCWLALTDPRDVARIESKTVIITQEQRDTVPIPKSGQSQLGRWMSEEDFEKAFNARFPGCMKGRTMYVIPFSMGPLGSPLAKIGIELTDSPYVVASMRIMTRMGTSVLEALGDGEFIKCLHSVGCPLPLKKPLVNNWACNPELTLIAHLPDRREIISFGSGYGGNSLLGKKCFALRIASRLAKEEGWLAEHMLILGITNPEGKKKYLAAAFPSACGKTNLAMMNPTLPGWKVECVGDDIAWMKFDAQGNLRAINPENGFFGVAPGTSVKTNPNAIKTIQKNTIFTNVAETSDGGVYWEGIDEPLAPGVTITSWKNKEWRPQDEEPCAHPNSRFCTPASQCPIIDPAWESPEGVPIEGIIFGGRRPAGVPLVYEALSWQHGVFVGAAMRSEATAAAEHKGKVIMHDPFAMRPFFGYNFGKYLAHWLSMAHRPAAKLPKIFHVNWFRKDKNGKFLWPGFGENSRVLEWMFGRIEGEDSAKLTPIGYVPKEDALNLKGLGDVNVEELFGISKEFWEKEVEEIDKYLEDQVNADLPYEIERELRALKQRISQM
# Chain of UniProt P22106 (whole entry, looked up): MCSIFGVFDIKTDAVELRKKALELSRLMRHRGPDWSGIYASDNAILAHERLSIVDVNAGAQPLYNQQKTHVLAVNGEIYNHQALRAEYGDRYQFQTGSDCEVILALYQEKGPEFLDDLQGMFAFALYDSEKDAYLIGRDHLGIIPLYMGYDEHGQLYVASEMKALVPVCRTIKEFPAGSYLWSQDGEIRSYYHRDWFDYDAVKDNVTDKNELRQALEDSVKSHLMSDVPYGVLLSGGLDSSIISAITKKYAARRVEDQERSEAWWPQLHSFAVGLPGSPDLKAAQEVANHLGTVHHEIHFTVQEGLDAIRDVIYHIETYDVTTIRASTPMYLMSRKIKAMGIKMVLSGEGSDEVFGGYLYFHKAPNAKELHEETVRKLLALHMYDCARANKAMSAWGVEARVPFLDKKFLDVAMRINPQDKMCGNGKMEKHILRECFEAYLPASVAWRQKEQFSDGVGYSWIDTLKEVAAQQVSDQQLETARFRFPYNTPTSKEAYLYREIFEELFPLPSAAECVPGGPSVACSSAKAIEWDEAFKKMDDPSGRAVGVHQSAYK
Substance,substrate,pH,temperature,notes,together with,kcat/Km
B1 (Tcur_2987 W263F/W376F),Nc1c(S(=O)(=O)O)cc(Nc2cccc(S(=O)(=O)CCOS(=O)(=O)O)c2)c2c1C(=O)c1ccccc1C2=O,pH 3,,sigmoidal kinetics,H2O2 1 mM,2.7e+06 M⁻¹ s⁻¹
B2 (trypsin),NCCCC[C@H](NC(=O)c1ccccc1)C(=O)Nc1ccc([N+](=O)[O-])cc1,pH 8,25 °C,,,1530 ± 120 M⁻¹ s⁻¹
"asnB (Escherichia coli, UniProt P22106)",NC(=O)CC[C@H](N)C(=O)O,pH 8,37 °C,"100 mM NaCl, glutaminase site",MgCl2; no ATP,1190 M⁻¹ s⁻¹
B3 (enzyme),Nc1nc2c(c(=O)[nH]1)[N+]1=CN(c3ccc(C(=O)N[C@@H](CCC(=O)O)C(=O)[O-])cc3)C[C@H]1CN2,pH 7.3,27 °C,,,3.5e+06 M⁻¹ s⁻¹
B4 (protein),Cc1cn([C@H]2C[C@H](O)[C@@H](COP(=O)(O)OP(=O)(O)O[C@H]3O[C@H](C)C(=O)[C@H](O)[C@H]3O)O2)c(=O)[nH]c1=O,pH 7.5,,,NADPH 0.2 mM,98000 M⁻¹ s⁻¹
B5 (enzyme A178R/D177A/M179H/P184R),NC(=O)C1=CN([C@@H]2O[C@H](COP(=O)(O)OP(=O)(O)OC[C@H]3O[C@@H](n4cnc5c(N)ncnc54)[C@H](OP(=O)(O)O)[C@@H]3O)[C@@H](O)[C@H]2O)C=CC1,pH 7.5,37 °C,per site,,8.2e+06 ± 1.6e+06 M⁻¹ s⁻¹
B6 (BaiA2),C[C@H](CCC(=O)SCCNC(=O)CCNC(=O)[C@H](O)C(C)(C)COP(=O)(O)OP(=O)(O)OC[C@H]1O[C@@H](n2cnc3c(N)ncnc32)[C@H](O)[C@@H]1OP(=O)(O)O)[C@H]1CC[C@H]2[C@@H]3CC[C@@H]4C[C@H](O)CC[C@]4(C)[C@H]3C[C@H](O)[C@]12C,pH 8.7,37 °C,,NAD+,9320 M⁻¹ s⁻¹
B7 (Tat),O=C(O)CCC(=O)C(=O)O,pH 7,38 °C,,PLP,14200 M⁻¹ s⁻¹
B8 (SUOX R529M/Y400N),O=[N+]([O-])O,pH 7,25 °C,,dithionite-reduced methyl viologen,34000 M⁻¹ s⁻¹
B9 (Mgst1 unactivated),CC(=O)c1ccc(Cl)c([N+](=O)[O-])c1,pH 6.5,5 °C,"potassium phosphate 0.1 M, unactivated enzyme",GSH 5 mM,210 ± 30 M⁻¹ s⁻¹
B10 (PPIP5K2),Nc1ncnc2c1ncn2[C@@H]1O[C@H](COP(=O)(O)OP(=O)(O)OP(=O)(O)O)[C@@H](O)[C@H]1O,,,,,5900 M⁻¹ s⁻¹
B11 (Pck1),O=C(O)CC(=O)C(=O)O,pH 7.5,25 °C,,"OAA, GTP",1e+06 M⁻¹ s⁻¹

# A few entries again:
Substance,substrate,pH,temperature,notes,together with,kcat/Km
B7 (Tat),O=C(O)CCC(=O)C(=O)O,pH 7,38 °C,,PLP,14200 M⁻¹ s⁻¹
